Assay results collected from several papers.
A part holds a random share of what one study measured. Values joined by “and” are separate records of one study, mostly repeats; a detail may differ. ± gives the spread as reported.
Sequence of UniProt P42336 (whole entry, unmodified, looked up): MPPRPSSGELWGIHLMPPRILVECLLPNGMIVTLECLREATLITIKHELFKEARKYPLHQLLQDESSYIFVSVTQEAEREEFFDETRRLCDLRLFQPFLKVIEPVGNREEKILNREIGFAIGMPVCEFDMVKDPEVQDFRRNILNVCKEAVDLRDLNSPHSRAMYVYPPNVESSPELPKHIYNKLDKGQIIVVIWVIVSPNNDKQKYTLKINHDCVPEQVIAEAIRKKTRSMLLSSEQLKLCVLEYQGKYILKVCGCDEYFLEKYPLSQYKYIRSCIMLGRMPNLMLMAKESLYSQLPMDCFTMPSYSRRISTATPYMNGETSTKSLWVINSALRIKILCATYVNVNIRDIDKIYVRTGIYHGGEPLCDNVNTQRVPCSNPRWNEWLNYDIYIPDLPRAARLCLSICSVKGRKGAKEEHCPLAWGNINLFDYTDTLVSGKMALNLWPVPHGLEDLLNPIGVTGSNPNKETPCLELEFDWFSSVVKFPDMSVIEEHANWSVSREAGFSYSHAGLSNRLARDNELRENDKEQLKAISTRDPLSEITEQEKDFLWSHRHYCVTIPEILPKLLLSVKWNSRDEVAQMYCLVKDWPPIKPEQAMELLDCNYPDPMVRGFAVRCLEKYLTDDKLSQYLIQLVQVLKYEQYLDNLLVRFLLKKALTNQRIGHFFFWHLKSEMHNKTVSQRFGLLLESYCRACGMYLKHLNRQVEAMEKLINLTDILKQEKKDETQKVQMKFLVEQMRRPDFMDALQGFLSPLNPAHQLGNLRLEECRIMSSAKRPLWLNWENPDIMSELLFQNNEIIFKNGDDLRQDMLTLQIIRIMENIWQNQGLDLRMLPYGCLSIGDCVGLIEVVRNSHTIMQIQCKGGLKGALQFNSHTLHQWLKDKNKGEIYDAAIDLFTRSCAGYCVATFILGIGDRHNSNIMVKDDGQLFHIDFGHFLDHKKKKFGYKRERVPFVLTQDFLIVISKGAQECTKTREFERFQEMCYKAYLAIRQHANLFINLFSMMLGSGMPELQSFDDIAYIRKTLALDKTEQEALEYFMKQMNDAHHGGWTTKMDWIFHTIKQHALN
Sequence of UniProt P45985 (whole entry, looked up): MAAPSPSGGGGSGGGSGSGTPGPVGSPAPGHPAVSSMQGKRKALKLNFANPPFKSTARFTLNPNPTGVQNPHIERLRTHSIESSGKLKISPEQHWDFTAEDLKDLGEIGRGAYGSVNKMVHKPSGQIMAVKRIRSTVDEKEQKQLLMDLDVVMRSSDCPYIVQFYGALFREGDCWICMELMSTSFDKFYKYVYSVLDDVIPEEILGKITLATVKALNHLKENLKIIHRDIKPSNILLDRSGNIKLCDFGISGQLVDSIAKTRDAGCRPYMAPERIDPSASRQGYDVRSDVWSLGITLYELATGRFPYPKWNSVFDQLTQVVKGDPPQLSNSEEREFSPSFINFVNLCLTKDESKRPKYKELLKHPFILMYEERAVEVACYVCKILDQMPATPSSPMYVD

Series 1
SMILES: C=CCc1ccc(O)c(-c2ccc(O)c(CC=C)c2)c1
Effect on: chloride current
Technique: whole-cell voltage clamp
Endpoint: IC50
ANO1 del476-501/L548A: Anoctamin-1 (ANO1, Homo sapiens, UniProt Q5XXA6, del476-501/L548A)
Sequence of UniProt Q5XXA6 (whole entry, unmodified, looked up): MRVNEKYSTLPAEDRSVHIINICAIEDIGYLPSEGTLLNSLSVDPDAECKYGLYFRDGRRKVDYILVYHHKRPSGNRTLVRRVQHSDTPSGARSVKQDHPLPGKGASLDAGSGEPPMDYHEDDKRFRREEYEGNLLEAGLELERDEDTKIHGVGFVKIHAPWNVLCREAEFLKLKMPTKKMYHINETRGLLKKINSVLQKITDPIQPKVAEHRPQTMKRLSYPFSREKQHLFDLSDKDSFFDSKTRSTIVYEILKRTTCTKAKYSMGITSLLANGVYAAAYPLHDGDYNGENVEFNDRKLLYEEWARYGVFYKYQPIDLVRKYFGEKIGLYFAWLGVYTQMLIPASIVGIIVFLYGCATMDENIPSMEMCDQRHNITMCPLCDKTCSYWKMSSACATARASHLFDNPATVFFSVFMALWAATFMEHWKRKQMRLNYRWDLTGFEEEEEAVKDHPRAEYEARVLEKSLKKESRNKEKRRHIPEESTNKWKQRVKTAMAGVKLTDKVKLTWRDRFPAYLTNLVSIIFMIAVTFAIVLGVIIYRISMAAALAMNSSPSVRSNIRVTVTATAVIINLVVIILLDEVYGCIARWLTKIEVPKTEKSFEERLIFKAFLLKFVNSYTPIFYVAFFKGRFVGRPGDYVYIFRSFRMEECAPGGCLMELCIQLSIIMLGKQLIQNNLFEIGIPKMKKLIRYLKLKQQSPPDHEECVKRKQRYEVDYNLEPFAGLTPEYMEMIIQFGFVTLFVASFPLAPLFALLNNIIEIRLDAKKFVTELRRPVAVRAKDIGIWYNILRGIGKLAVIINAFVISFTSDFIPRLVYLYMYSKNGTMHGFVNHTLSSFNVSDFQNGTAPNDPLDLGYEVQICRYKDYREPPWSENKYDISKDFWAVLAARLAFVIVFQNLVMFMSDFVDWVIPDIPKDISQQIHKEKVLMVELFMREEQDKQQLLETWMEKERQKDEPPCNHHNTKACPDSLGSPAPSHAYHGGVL
ANO1 del476-501/E650A: Anoctamin-1 (ANO1, Homo sapiens, UniProt Q5XXA6, del476-501/E650A)
ANO1 del476-501/M544A: Anoctamin-1 (ANO1, Homo sapiens, UniProt Q5XXA6, del476-501/M544A)
Anoctamin-1 (ANO1, Homo sapiens, UniProt Q5XXA6, del476-501/F807W); inhibitor; 20 mV holding voltage: 8.72 µM
Anoctamin-1 (ANO1, Homo sapiens, UniProt Q5XXA6, del476-501/R631I); inhibitor; R605I mutant at -20 mV: 21.4 µM
ANO1 del476-501/L548A; membrane voltage -100 mV: 9.75 µM
ANO1 del476-501/E650A; inhibitor; pore pocket mutant E624A at 100 mV, together with: 300 nM Ca2+: 4.39 µM
ANO1 del476-501/M544A; membrane voltage 100 mV: 4.62 µM
Anoctamin-1 (ANO1, Homo sapiens, UniProt Q5XXA6, del476-501/F628W); inhibitor; 100 mV holding voltage: 15.1 µM
ANO1 del476-501/E650A; membrane voltage -60 mV: 4.92 µM
Anoctamin-1 (ANO1, Homo sapiens, UniProt Q5XXA6, del476-501); inhibitor; -100 mV voltage, together with: 300 nM Ca2+: 3.23 µM
ANO1 del476-501/L548A; membrane voltage 20 mV: 5.6 µM
ANO1 del476-501/M544A; membrane voltage -20 mV: 3.43 µM
Anoctamin-1 (ANO1, Homo sapiens, UniProt Q5XXA6, del476-501/F623A); membrane voltage -40 mV: 11.4 µM

Series 2
Structure (SMILES): CCS(=O)(=O)c1cc2cc(C[C@](O)(CC(C)(C)c3ccc(F)cc3C(N)=O)C(F)(F)F)[nH]c2cn1
Effect on: cell-free assay
Technique: competition with immobilised ligand
Tested at: 1 µM
Endpoint: remaining binding
FGFR3 (Homo sapiens, UniProt P22607): 100%
PIK3CA (Homo sapiens, UniProt P42336, E542K): 66%
ACVR1 (Homo sapiens, UniProt Q04771): 100%
MAP3K5 (Homo sapiens, UniProt Q99683): 100%
ROS1 (Homo sapiens, UniProt P08922): 100%
WEE1 (Homo sapiens, UniProt P30291): 100%
MAP2K4 (Homo sapiens, UniProt P45985): 100%
NEK1 (Homo sapiens, UniProt Q96PY6): 45%
EGFR (Homo sapiens, UniProt P00533, del752-759): 100%
GRK1 (Homo sapiens, UniProt Q15835): 100%
PRKCD (Homo sapiens, UniProt Q05655): 100%
FGFR2 (Homo sapiens, UniProt P21802): 100%
CSNK1D (Homo sapiens, UniProt P48730): 96%
Ribosomal protein S6 kinase alpha-1, N-terminal kinase domain (RPS6KA1, Homo sapiens, UniProt Q15418): 100%
PRKAA1 (Homo sapiens, UniProt Q13131): 100%

Series 3
Target: DNA polymerase theta, ATPase domain (POLQ, Homo sapiens, UniProt O75417)
Sequence of UniProt O75417 (whole entry, unmodified, looked up): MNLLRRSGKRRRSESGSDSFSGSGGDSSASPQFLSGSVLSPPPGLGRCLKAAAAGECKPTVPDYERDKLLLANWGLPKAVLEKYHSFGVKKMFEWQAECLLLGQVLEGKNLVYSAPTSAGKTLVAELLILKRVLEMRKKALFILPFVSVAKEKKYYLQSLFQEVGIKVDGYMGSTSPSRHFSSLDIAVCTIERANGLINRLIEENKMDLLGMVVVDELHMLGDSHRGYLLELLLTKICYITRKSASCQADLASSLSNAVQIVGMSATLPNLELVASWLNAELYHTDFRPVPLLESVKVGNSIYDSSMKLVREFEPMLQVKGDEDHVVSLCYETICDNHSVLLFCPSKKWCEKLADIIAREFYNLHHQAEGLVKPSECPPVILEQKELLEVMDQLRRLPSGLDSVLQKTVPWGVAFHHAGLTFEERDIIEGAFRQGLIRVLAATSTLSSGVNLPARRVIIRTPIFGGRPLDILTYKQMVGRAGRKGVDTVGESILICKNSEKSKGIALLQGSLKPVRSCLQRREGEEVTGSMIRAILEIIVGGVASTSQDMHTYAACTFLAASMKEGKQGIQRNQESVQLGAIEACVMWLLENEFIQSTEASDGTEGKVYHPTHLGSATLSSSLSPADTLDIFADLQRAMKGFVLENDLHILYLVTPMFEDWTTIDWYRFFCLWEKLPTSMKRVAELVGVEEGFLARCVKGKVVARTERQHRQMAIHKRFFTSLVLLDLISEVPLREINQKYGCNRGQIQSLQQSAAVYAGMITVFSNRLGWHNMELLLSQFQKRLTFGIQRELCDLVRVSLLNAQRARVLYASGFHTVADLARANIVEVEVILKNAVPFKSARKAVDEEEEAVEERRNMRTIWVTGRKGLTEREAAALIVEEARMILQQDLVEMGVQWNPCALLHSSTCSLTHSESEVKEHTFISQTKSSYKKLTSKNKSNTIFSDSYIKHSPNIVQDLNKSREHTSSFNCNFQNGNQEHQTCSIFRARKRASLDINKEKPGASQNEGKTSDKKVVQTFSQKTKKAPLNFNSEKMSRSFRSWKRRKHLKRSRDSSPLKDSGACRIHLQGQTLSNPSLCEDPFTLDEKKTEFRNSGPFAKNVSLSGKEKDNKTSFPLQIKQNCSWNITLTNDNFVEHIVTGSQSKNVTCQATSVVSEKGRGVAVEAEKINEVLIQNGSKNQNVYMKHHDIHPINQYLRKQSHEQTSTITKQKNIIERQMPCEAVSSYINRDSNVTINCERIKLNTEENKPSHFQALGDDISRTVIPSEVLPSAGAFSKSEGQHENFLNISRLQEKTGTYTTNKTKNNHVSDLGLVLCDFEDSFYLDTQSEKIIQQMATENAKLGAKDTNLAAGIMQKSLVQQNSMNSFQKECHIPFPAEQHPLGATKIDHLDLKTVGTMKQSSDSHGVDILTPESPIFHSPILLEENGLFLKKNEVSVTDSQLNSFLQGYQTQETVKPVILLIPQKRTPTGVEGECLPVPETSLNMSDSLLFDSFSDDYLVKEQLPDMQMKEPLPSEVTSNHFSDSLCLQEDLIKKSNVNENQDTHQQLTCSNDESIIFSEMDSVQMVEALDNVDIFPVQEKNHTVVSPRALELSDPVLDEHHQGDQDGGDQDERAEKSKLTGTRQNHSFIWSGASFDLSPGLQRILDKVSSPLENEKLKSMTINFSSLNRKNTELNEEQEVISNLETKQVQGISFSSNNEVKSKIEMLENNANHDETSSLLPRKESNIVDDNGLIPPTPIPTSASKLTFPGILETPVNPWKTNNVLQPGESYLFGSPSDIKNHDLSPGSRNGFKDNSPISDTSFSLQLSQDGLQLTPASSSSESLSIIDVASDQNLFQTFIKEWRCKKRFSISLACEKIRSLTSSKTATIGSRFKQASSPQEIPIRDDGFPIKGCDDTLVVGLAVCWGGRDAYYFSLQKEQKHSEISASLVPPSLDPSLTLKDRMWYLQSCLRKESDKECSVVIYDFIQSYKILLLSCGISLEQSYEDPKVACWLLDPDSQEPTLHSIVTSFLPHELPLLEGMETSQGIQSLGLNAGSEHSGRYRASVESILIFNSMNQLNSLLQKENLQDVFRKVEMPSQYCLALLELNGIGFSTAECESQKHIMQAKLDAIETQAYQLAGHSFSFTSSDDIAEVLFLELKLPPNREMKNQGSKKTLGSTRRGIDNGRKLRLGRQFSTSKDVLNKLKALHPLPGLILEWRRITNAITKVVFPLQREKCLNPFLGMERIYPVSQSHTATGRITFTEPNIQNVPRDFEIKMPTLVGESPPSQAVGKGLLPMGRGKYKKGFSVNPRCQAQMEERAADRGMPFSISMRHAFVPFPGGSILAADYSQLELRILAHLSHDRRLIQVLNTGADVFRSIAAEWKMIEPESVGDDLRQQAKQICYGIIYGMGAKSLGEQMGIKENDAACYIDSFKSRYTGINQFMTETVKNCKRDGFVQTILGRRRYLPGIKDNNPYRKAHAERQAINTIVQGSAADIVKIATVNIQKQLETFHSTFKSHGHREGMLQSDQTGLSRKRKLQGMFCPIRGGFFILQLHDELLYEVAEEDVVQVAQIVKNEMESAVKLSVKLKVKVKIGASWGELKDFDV
Effect on: enzyme activity
Action: inhibitor
Tested at: 77 µM
Relative to: untreated
Endpoint: remaining activity
C/C(=C\c1ccc(C(=O)O)cc1)c1ccc2c(c1)C(C)(C)CCC2(C)C: 94.6% and 94.4%
N[C@@H](Cc1cc(I)c(Oc2cc(I)c(O)c(I)c2)c(I)c1)C(=O)O: 99.3%
Cc1ccsc1/C=C/C1=NCCCN1C: 92.4%
CO[C@@H](C(=O)N1Cc2[nH]nc(NC(=O)c3ccc(N4CCN(C)CC4)cc3)c2C1)c1ccccc1: 69.2% and 97.8% and 101% and 88.4%
C=C[C@]1(C)C[C@@H](OC(=O)CSC(C)(C)CNC(=O)[C@H](N)C(C)C)[C@]2(C)[C@H](C)CC[C@]3(CCC(=O)[C@H]32)[C@@H](C)[C@@H]1O: 74.3%
CCOc1ccc2nc3cc(N)ccc3c(N)c2c1: 68.3%

Series 4
SMILES: COc1cc(C(=O)N2CCC(N3CCN(C)CC3)CC2)ccc1Nc1ncc2c(n1)N(C)c1ccccc1C(=O)N2C
Effect on: kinase activity
Endpoint: remaining activity
HIPK3; 10 µM: 102%
JNK1; 10 µM: 96 ± 3%
MINK1; 1 µM: 99 ± 8%
CLK2; 10 µM: 69 ± 1%
MSK1; 1 µM: 79 ± 8%
SYK; 10 µM: 63%
DYRK3; 1 µM: 95%
HIPK1; 10 µM: 104 ± 13%
NEK2a; 10 µM: 110 ± 3%
EPH-B3; 1 µM: 71 ± 1%

For quick reference, copied from above (series 2):
PRKAA1 (Homo sapiens, UniProt Q13131): 100%
CSNK1D (Homo sapiens, UniProt P48730): 96%
EGFR (Homo sapiens, UniProt P00533, del752-759): 100%
ACVR1 (Homo sapiens, UniProt Q04771): 100%
FGFR3 (Homo sapiens, UniProt P22607): 100%
